Assay results of several laboratories.
A part holds a random share of what one study measured. Substitutions count along the parent as printed.

Set 1 — technique: RNA Bind-n-Seq; molecule type: RNA; medium: in vitro; tested at: 365 nM; relative to: no-protein control; reading: higher = stronger binding
Target: RNA binding protein fox-1 homolog 2, RRM domain, GST-SBP tag (RBFOX2, Homo sapiens, UniProt O43251-10, residues 100-194)
Notes: natural RNA segment, single round, ends assumed
Residues (chain): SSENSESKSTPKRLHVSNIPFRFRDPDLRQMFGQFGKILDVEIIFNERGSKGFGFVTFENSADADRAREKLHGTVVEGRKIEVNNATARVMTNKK
| Strand | RBNS enrichment (R) |
| --- | --- |
| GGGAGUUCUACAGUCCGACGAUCGGACAUGGGGGUGUGCAGAAGUUCUGUUCUUAGUGAGAAUGGCUGGCCUGAGAAUCCAGCUCACCUCCUCUGCCCACAGUCUGGACUGCUUGUGGGAAGGCCAUCUCCUCUGGAAUUCUCGGGUGCCAA | 0.801 |
| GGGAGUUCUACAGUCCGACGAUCUAAGAAUGGUUGUGUUUGGAUACUUGUAAAUGCUGUUUAGUUAGAAAAAGCAUGUUAAGUUGGUAUAAGCAGUGAUUUUAAAUGAUUUUUAAAAAUAAGACGUCCUUCAAUGGAAUUCUCGGGUGCCAA | 5.51 |
| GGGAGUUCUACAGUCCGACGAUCUUAAUUCUCAUUAUAUUUCUAUACUGAAAGAAGAUUUUUAACGAAGGGAAAAACAACAGCAAUAACAUUCAUAUCUCUGGAGCAGCUAACUCAUACACGUAAUGUCUGCUUGGAAUUCUCGGGUGCCAA | 0.321 |
| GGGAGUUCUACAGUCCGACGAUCACAGUGCUCCUGGCCACCCAGCCUCUGCUGAGAACCAUUCCUGGGAUUAGAGCUGCCUUUCCCAGGGAAAAAGUGUCGUCUCCCCGACCCUCCCGUGGGCCCUGUGGUGUUGGAAUUCUCGGGUGCCAA | 0.408 |
| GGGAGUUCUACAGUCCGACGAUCGGGAUGCCUCUUUUCCUCGCGAGGCGGCCAUCCUCUCUGGACACUGGCCUCGCCGUCUCUUUCCUCCCUCCACACACCCACUUAUUUCCUUAACCUUCUUUCCCAAUGGAUGGAAUUCUCGGGUGCCAA | 0.418 |
| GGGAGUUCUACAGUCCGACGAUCAAAGCACCAUCAUCAUAGAGGAUGAUGUAAUUAAAAAAUGGUCAGUGUGCAAAGAAAAGAACUGCUUGCAUUUCUUUAUUUCUGUCUCAUAAUUGUCAAAAACCAGAAUUUGGAAUUCUCGGGUGCCAA | 1.07 |
| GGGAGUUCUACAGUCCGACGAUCUUUCUUAAGCGACUACAUCAUAUUUUAAAAUAUUAAUCCUUCAAUAAAGUGGCAAGUAUAAGAAAAUGGUAUAAAUAUAUAGACAAUCAUCAGAUAUUUAUUAAUUUAAUUGGAAUUCUCGGGUGCCAA | 0.459 |
| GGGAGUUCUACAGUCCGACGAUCUCUUAGCACAUCCUCUGUUCUCUACCUGUCAUGCUUCAAGAGUUCCAGCUGGCCUGCUGUGAAGCCAGUAGCUAUUUUAAAAGUGCUGGCUGCAGGAUUAAGCCAACCCUUGGAAUUCUCGGGUGCCAA | 0.55 |
| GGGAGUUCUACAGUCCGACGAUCGAAGGUGUUAUGCGGCUGCUCCCUCCGUCCCAGAGGUGGCAGUGAUUCCAUAAUGUGGAGACUAGUAACUAGAUCCUAAGGCAAAGAGGUGUUUCUCCUUCUGGAUGAUUUGGAAUUCUCGGGUGCCAA | 0.449 |
| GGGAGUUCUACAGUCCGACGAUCUAAGAAAGUAAACACUUUUUGAGCACCAAAUAUAUAUAGGGCAUUGUUCUGGUGGGUGUGUCACGCUCCCAGAAGACUGAAUUCAUGGUAGGAUCACUCGCAAGGCCUUGUGGAAUUCUCGGGUGCCAA | 0.305 |
| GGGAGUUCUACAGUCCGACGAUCAUGGCUGUCUCAGCACAAUACUCAACAUAACUGCAGAACUGAUGUGGCUCAGGCACCCUGGUUUUAAUUCCUUGAGGAUCUGGCAAUUGGCUUACGCAAAAGGUCACCAUUGGAAUUCUCGGGUGCCAA | 0.623 |
| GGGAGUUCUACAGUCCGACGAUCUCUAGAACCGACGACCACACACCGCCCCCGUGUUCCACCCAGCAAGCUCCGCUGGGAGACCCAGCGCCGGCACCCACUCUGCCGCAGAGGGAGGAAGGGGACUGCAGUAAUGGAAUUCUCGGGUGCCAA | 0.245 |

Set 2 — technique: RNA Bind-n-Seq; molecule type: RNA; medium: in vitro; tested at: 1 µM; notes: whole 134-nt RNA, ends assumed; with: 150 mM KCl; relative to: input library; reading: higher = stronger binding
Target: Ras GTPase-activating protein-binding protein 1, RRM domain (G3BP1, Homo sapiens, UniProt Q13283)
Chain of UniProt Q13283 (whole entry, looked up): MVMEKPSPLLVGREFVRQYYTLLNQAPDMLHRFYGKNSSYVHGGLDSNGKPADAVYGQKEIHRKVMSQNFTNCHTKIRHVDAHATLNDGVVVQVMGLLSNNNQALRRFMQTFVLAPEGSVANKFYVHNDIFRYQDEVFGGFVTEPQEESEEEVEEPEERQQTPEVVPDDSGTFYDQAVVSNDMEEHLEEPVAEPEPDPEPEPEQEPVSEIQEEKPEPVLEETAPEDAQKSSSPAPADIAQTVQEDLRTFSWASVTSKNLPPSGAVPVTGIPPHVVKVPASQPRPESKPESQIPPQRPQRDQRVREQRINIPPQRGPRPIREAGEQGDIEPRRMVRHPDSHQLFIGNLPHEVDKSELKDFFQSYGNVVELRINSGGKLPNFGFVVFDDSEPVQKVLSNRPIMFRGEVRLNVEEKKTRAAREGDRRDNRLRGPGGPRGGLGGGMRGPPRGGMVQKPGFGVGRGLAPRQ
| Strand | log2 enrichment |
| --- | --- |
| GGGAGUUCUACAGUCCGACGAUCCCUGUGCUACACAUCGUAUGUACCGAAUCGGGGCCCCCGGGGCCCCCGGGGCCCCCGGGGAAAGUAUUAUGUUACGCCGUUCGGAUCUGCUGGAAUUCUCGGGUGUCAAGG | -0.981 |
| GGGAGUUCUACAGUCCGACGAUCUGUGCUACACAUCGUAUGUACCGAAUCGGGGUUUUUUUGGGGUUUUUUUGGGGAAAAAGGGGAAAGUAUUAUGUUACGCCGUUCGGAUCUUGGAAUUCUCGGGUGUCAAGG | 0.707 |
| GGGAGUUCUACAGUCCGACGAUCUCUAACUAAUUUUUCUUUGUUUUUUAACAGGAGAGGAGAUACUUACCCUUAAGUCAAGCCAGAAAAAGUGGUUUCCAAAUGGAUUGGCUGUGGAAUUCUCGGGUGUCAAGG | -0.504 |
| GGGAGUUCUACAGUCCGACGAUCCACAGACAACACGCACCCACACAGACACAGAGGGAAGGGGUUGGGAUGGGGACAGGGUGCACAGCAGGGCGGGGUAGGACCCCCGCCCCUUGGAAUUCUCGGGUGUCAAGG | -0.438 |
| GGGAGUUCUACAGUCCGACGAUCUGUUGUCUGGGUUUGGGGGUCGAGUAGAUGCGGGGCAGCCGGAGCUGUUGACGGAAAGGAGUAGCCCCAAAGGAGGGCAUGUGAAGUCGCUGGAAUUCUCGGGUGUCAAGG | -0.201 |
| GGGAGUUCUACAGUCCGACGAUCUCCUCAAGUCCUGUGCUACACAUCGUAUGUACCGAAUCGGCGGCGGGCGGGGAAAGUAUUAUGUUACGCCGUUCGGAUCUGCACUUCCAGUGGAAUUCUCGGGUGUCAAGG | -0.205 |
| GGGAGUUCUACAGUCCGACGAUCAGUCCUGUGCUACACAUCGUAUGUACCGAAUCGGAAAAAGGAAAAAGGGAAAAAGGGGAAAGUAUUAUGUUACGCCGUUCGGAUCUGCACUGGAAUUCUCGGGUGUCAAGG | -0.135 |
| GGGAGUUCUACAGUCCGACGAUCUAACUUUAGAGGAGGAUCUGAUGGAUAUGGCAGUGGACGUGGAUAUGGGGAUGGCUAUAAUGGGUAUGGAGGAGGACCUGGAGGUGGCAAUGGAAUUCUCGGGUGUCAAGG | -0.386 |
| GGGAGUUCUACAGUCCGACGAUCCUCAAGUCCUGUGCUACACAUCGUAUGUACCGAAUCGGAGGAAAAAAAGGUGGAAAGUAUUAUGUUACGCCGUUCGGAUCUGCACUUCCAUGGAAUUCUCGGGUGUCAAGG | -0.27 |

Set 3 — technique: protein binding microarray; molecule type: double-stranded DNA, one strand shown; medium: in vitro; tested at: not given; relative to: not given; reading: higher = stronger binding
Target: Histone acetyltransferase KAT6A, winged helix 2, GST fusion (KAT6A, Homo sapiens, UniProt Q92794, residues 85-181)
Notes: 8-mer, flanks averaged, mean of 2 arrays, mostly near background
Construct (chain): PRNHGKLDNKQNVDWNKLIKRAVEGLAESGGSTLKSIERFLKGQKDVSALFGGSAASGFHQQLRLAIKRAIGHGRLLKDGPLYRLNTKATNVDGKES
| Strand | E-score |
| --- | --- |
| GTTCGCTA | 0.017 |
| ACCGGTCA | -0.0697 |
| GAACGATA | -0.165 |
| GACGAAAC | 0.103 |
| CCACGTTA | -0.091 |
| GAAAGCGA | 0.133 |
| ACAGGTTG | -0.182 |
| AACCGATG | -0.0435 |
| AAACGTGC | -0.211 |
| AATGACCG | 0.0636 |
| CCACAGGC | -0.054 |
| AAGATCAT | -0.00225 |
| AGTTGGCG | 0.0578 |

Set 4 — technique: aptamer microarray, sandwich; molecule type: DNA with 2'F-ANA; medium: in vitro; tested at: 200 nM; with: Cy3 exosite-II aptamer, 400 nM; reading: higher = stronger binding; strand: GGTTGGTGTGGTTGG
Target: Prothrombin, mature alpha-thrombin (F2, Homo sapiens, UniProt P00734)
Notes: whole 15-mer aptamer, many near background
| Modification | mean fluorescence intensity |
| --- | --- |
| 2'F-ANA at 1 2 4 8 9 10 14 15 | 72.4 a.u. |
| 2'F-ANA at 1 2 3 4 7 9 10 11 14 15 | 49.1 a.u. |
| 2'F-ANA at 1 5 6 8 | 70.8 a.u. |
| 2'F-ANA at 7 8 9 10 14 | 139 a.u. |
| 2'F-ANA at 4 8 9 13 | 208 a.u. |
| 2'F-ANA at 3 5 6 7 9 12 13 15 | 132 a.u. |
| 2'F-ANA at 1 5 6 7 10 11 12 | 47.6 a.u. |
| 2'F-ANA at 1 5 9 10 12 13 15 | 46.6 a.u. |
| 2'F-ANA at 1 3 4 6 8 11 12 13 14 | 81.5 a.u. |
| 2'F-ANA at 3 5 8 9 10 12 13 | 169 a.u. |
| 2'F-ANA at 2 7 9 11 | 442 a.u. |
| 2'F-ANA at 3 9 11 14 15 | 585 a.u. |
| 2'F-ANA at 1 3 4 6 10 12 13 14 15 | 53.9 a.u. |
| 2'F-ANA at 1 4 5 8 9 11 12 13 14 | 45.1 a.u. |
| 2'F-ANA at 3 4 6 7 8 10 11 12 14 15 | 182 a.u. |

Set 5 — technique: protein-binding microarray; molecule type: double-stranded DNA, one strand shown; medium: in vitro; tested at: 2540 nM top; notes: 60-bp whole probe; with: salmon DNA 0.4 mg/ml; relative to: random background probes; reading: higher = stronger binding; constant ends, left off below: GCCTAGCAC … GTCTTGATTCGCTTGACGCTGCTG
Target: Interferon regulatory factor 3, full length, phosphomimetic (IRF3, Homo sapiens, UniProt Q14653, residues 1-427, S386D/S396D/S398D/S402D/T404D/S405D)
Target sequence (chain): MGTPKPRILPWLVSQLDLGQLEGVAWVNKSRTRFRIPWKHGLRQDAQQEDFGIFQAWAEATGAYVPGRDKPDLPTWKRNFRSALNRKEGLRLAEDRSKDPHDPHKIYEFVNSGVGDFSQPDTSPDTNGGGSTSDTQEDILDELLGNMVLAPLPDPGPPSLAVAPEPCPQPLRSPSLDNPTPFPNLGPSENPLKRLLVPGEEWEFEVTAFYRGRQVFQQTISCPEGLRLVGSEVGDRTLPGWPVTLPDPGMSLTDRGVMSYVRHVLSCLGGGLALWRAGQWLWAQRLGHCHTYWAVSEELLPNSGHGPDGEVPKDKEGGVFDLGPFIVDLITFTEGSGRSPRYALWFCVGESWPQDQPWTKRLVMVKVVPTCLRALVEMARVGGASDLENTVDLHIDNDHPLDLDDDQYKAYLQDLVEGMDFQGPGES
| Strand | fitted relative affinity [z-score] |
| --- | --- |
| GACGGTCTAGGACTGGGGACGTGCTAG | -0.547 |
| GAACATACTGATTTCCACTTGTGCTAG | 0.952 |
| ACAGGTTCTCTTTTATTTTTGTGCTAG | 2.4 |
| TTAGGTATCGGGTATCGGTGAGTGCTA | 1.49 |
| TTTGGTATCGGTATCGGTTAGTGCTAG | 5.74 |
| GACGGTATCCTTCTCCTGAAGTGCTAG | 6.73 |
| CACGGTTTCGACTATCGGGACGTGCTA | 2.37 |
| GAAGGTATCCTTATCCTGACGTGCTAG | 5.03 |
| CCAGATTTCCCCACCATCTAGTGCTAG | 1.02 |
| TTAGATTTCAGACTGGAGTAGTGCTAG | 0.532 |

Set 6 — technique: DHFR PCA, deep sequencing; medium: yeast; with: (+)-ABA 0.39 µM; relative to: wild-type fitted maximum; reading: higher = stronger binding
Target: ABI1, truncated, D143A, DHFR fusion (Arabidopsis thaliana)
Notes: methotrexate growth selection, single substitutions
Parent: PYL1, truncated, DHFR fusion (Arabidopsis thaliana); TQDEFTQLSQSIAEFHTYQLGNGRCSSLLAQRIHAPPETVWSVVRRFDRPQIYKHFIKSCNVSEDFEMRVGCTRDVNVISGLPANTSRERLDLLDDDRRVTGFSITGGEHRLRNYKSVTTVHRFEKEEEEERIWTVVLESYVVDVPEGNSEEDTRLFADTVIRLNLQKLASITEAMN
| Substitution | relative binding score |
| --- | --- |
| D75S | 39.2% |
| S171T | 55.9% |
| L28M | 37.5% |
| S140M | -11.4% |
| T17M | 12.3% |
| K116N | -9.26% |
| D48R | -3.14% |
| E67Q | 49.9% |
| F124H | 6.56% |
| F5N | 1.42% |
| D153F | -12.9% |
| K58Q | 24.7% |
| N177V | 59.7% |
| Q51S | -2.08% |
| A175G | 50.3% |

A few entries again (set 5):
| Strand | fitted relative affinity [z-score] |
| --- | --- |
| ACAGGTTCTCTTTTATTTTTGTGCTAG | 2.4 |
| TTAGGTATCGGGTATCGGTGAGTGCTA | 1.49 |
| TTTGGTATCGGTATCGGTTAGTGCTAG | 5.74 |
| GACGGTATCCTTCTCCTGAAGTGCTAG | 6.73 |
